# Measured values of several laboratories.
# Numbered parts are unrelated; each lists some results of a single study.

# Series 1
# Target: Prothrombin, mature alpha-thrombin (F2, Homo sapiens, UniProt P00734)
# Technique: aptamer microarray, sandwich
# Form: DNA with 2'F-ANA
# Medium: in vitro
# Tested at: 200 nM
# Setting: whole 15-mer aptamer, many near background
# With: Cy3 exosite-II aptamer, 400 nM
# Reading: higher = stronger binding
Strand,mean fluorescence intensity [a.u.]
GGTTGGTGTGGTTGG (2'F-ANA at 1 2 3 5 9 10 11 12 13 15),79.2
GGTTGGTGTGGTTGG (2'F-ANA at 1 8 10 15),58.3
GGTTGGTGTGGTTGG (2'F-ANA at 1 2 3 5 6 7 8 10 14 15),55.1
GGTTGGTGTGGTTGG (2'F-ANA at 1 2 3 6 7 9 10 11 13 15),63.2

# Series 2
# Target: Centromere-binding protein 1, full length, His-tagged (CBF1, Saccharomyces cerevisiae, UniProt P17106, residues 1-351)
# Chain of UniProt P17106 (whole entry, looked up): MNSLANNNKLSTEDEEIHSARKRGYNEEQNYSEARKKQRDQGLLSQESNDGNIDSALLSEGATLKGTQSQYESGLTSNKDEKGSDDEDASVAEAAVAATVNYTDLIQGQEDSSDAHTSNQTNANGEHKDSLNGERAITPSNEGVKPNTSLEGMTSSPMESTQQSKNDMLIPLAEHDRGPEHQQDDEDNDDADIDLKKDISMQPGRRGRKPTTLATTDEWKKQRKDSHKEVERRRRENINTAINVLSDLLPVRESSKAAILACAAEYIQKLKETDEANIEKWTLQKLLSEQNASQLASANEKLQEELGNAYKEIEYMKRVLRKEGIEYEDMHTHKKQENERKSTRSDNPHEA
# Technique: competition protein-binding microarray
# Form: double-stranded DNA, one strand shown
# Medium: in vitro
# Tested at: 2 µM
# Setting: whole 60-bp probe, lowest competitor level
# With: Pho4 competitor, 0.05 µM
# Reading: higher = stronger binding
Strand,fluorescence intensity [a.u.]
CATACCCAACCTTTTCACGTGCCCTAAGATATTTGTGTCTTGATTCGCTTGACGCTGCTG,1210
GTCTTGTCTCATTGTCACTTCACTTTCCCCACTTCAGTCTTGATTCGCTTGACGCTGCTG,87.2
TACTCCACTGCTCCACACGTTGTTGCTGCTGTTATGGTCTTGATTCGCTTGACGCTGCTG,88.1
TGCGCAACAACTTGGTCTGTGGGTGTATGTCTAGAAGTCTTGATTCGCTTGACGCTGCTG,57.5
ATTTTAACTTCATCTACCGTGATGGCTATTACCACCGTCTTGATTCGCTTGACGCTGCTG,75.7

# Series 3
# Target: RNA binding protein fox-1 homolog 2, RRM domain, GST-SBP tag (RBFOX2, Homo sapiens, UniProt O43251-10, residues 100-194)
# Technique: RNA Bind-n-Seq
# Form: RNA
# Medium: in vitro
# Tested at: 365 nM
# Setting: natural RNA segment, single round, ends assumed
# Baseline: no-protein control
# Reading: higher = stronger binding
# Residues (chain): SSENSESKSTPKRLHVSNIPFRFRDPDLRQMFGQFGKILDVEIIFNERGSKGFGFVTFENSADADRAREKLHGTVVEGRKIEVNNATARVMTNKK
Strand,RBNS enrichment (R)
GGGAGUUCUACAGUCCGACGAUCCGAUGCCUUGGGCAGGGUUUCCCCCUUUUCAGAAUACAGGGUGUAAAGUCCAGCCUAUUACAAACAAACAAACAAACAAACAAACAAAGGACCUCCAUUUGGAGAAUUGCUGGAAUUCUCGGGUGCCAA,0.44
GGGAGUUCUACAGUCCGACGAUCAAAAGGAACUCUAUUAAUAAGCUAGACUGCUUUUGGUUUCCAGUAAUUGGUUUAAAAACACAGUAAAUUUACUGGCUUAUAAAGCUGAAAAAGCCUAGGAGUACUGGCAGUGGAAUUCUCGGGUGCCAA,0.347
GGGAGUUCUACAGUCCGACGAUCUACUUUCCUGCAAAAUUUUCUUCAAAGCAACAAGUCCUAGGAGCACACAAAGCAACCCAAAGGCUUUUCCCUGGAAAAGCUCUUUCUUACCUAAAGAUAAAACCAAUUCAUGGAAUUCUCGGGUGCCAA,0.321
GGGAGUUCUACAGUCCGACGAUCCUCUUUUUAUGCAGAUAUUUGUGACCUUCAUCUUGCACAUACAACCAAAUUAUUUUAAGGUGCAUAGCACAAAGAUGUAUGCAAACAACUGUUUUAAAUCAGGUCUGAUAUGGAAUUCUCGGGUGCCAA,0.413
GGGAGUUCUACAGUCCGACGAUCCUACUUCCUUGGAACCAUCUCCAAAUUCCAAAUAGCCAACAACCCCCAACAUUAUAUACUCUGCUGCUUUUGUCUGGAAAACUCUACAGUGUUUGUGGGAUAUCCCCAAAUGGAAUUCUCGGGUGCCAA,0.615
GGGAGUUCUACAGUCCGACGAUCCAGGUGCCUUUUGGACAGUUGUGCUGAGCCUGGCAUCACAGACACCAGCAUGCACUUCAGGAUCAUUAGUGUAUUUAGAAUCUGUAAAAAUAAUAAAUAUGUUUGAAACAUGGAAUUCUCGGGUGCCAA,0.644

# Mixed results
Substance,target,assay,system,setting,scale,endpoint,value
"PhoQ, residues 284 288 289 292 302 303 SQSLSM","PhoP, residues 12 14 15 18 19 YHFSH (Escherichia coli, UniProt P23836)","Sort-seq, item: YFP reporter",E. coli,"PhoQ-PhoP variant library, with: 10 µM Mg2+","baseline: high Mg2+ state, higher = stronger signaling",fold induction,1.32

# For quick reference, copied from above (series 1):
Strand,mean fluorescence intensity [a.u.]
GGTTGGTGTGGTTGG (2'F-ANA at 1 2 3 5 6 7 8 10 14 15),55.1
GGTTGGTGTGGTTGG (2'F-ANA at 1 2 3 6 7 9 10 11 13 15),63.2
